Experimental data collected from several papers.
A part holds a random share of what one study measured.

Sample 1 — method: RNA Bind-n-Seq; molecule type: RNA; sample: in vitro; concentration: 365 nM; relative to: no-protein control; reading: higher = stronger binding
Target: RNA binding protein fox-1 homolog 2, RRM domain, GST-SBP tag (RBFOX2, Homo sapiens, UniProt O43251-10, residues 100-194)
Setting: natural RNA segment, single round, ends assumed
Constant ends, left off below: GGGAGUUCUACAGUCCGACGAUC … UGGAAUUCUCGGGUGCCAA
Target sequence (chain): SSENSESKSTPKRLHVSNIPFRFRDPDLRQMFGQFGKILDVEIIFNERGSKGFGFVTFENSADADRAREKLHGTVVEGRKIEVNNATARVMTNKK
| Oligonucleotide | RBNS enrichment (R) |
| --- | --- |
| UUCGACGCCAGACUAAACAGCUCCGGUGGGUUAAUGAGGAAGAACACAAAACUGACACCCCAUCUGGGCUGCGCUCCCCGGGGGGCCUGCAGACCCCAGGACUGCUGGCA | 2.81 |
| UCAGGGCUCCAUUCUGGAGGGCACCACGGUGACCCGGGCCAUCUCAGUAUUGCCUGUGGGGGCCACCCCUCCACCCCCACCCCCAAGUGCCUUCGCUCUGUUUUUAUACC | 0.373 |
| UUUUCCCUUUUUCUGCUGCUCUUGGCAGCAGCCUGGUCAUCAUCUGCUUGUGGGAGUGGGAAAUGGGUAUUUUAGACCCAACACAGGUUCUAAAUUUAAAACAAAUAAUA | 0.507 |
| UUUUUUUCCAAUCUCUGGCUCUUCUGUCAUCUUCCAAGCAGCGUCUGAGAGCUCUGCACGGGCACAGAUGCUGGGUACCUCUUAUGGGUGUGGCAGUAUUACACGAAACA | 0.288 |
| UUUCCAUUCUAUGAAGGGUGCGUGUUUCUGGUUUCCAGCAGCAGGAUAACAAGUGGGAAUUUACUCACUGACUUCUCAUUUAUCAUAAAAGCUGCAGCACCUUUAUGUAC | 0.289 |
| ACAGGUUUGAACUUGCACUUCUUAAGGAACAGCCAUAAUCCUCUGAAUGAUGCAUUAAUUACUGACUGUCCUAGUACAUUGGAAGCUUUUGUUUAUAGGAACUUGUAGGG | 1.83 |

Sample 2 — method: RNA Bind-n-Seq; molecule type: RNA; sample: in vitro; concentration: 20 nM; setting: 6-mer, flanks averaged, single round; together with: 150 mM LiCl; relative to: input library; reading: higher = stronger binding
Target: TAR DNA-binding protein 43, full length, His tag (TARDBP, Homo sapiens, UniProt Q13148, residues 1-414)
| Oligonucleotide | 6-mer enrichment (R) |
| --- | --- |
| UCACUA | 0.85 |
| UUGGGC | 1.06 |
| GAUCCC | 0.917 |
| GAUAAC | 0.799 |

Sample 3 — method: competition protein-binding microarray; molecule type: double-stranded DNA, one strand shown; sample: in vitro; concentration: 2 µM; together with: Pho4 competitor, 0.05 µM; reading: higher = stronger binding; constant ends, left off below: … GTCTTGATTCGCTTGACGCTGCTG
Target: Centromere-binding protein 1, full length, His-tagged (CBF1, Saccharomyces cerevisiae, UniProt P17106, residues 1-351)
Sequence of UniProt P17106 (whole entry, looked up): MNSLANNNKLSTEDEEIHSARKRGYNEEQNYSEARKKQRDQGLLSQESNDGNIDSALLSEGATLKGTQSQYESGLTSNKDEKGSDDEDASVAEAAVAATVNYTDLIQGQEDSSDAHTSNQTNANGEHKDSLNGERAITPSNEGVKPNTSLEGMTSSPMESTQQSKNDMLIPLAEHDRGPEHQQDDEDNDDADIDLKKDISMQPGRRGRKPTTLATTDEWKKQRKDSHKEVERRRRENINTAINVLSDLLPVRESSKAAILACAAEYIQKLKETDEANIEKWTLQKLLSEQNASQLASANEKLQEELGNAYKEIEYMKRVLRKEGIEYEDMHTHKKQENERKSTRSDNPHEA
Setting: whole 60-bp probe, lowest competitor level
| Oligonucleotide | fluorescence intensity [a.u.] |
| --- | --- |
| TGGAATAACAGTTGGCATGTGCCCACTGTATTCATG | 191 |
| GGGTAGCCCTCTCAACACGTGGAGGGTAACCTTTTC | 520 |
| CTTCTGTAAATTTGGGCGGTGGGTGGACGCGCCCCG | 71.5 |
| TATTGCGGTTGTTGCCACGCTTGTCGCCAGGGTTGT | 56.5 |
| GCATTTGTTGGCCATCACGTGAGCCGGGATCTTAAG | 4840 |

Other studies, line by line
| Molecule | target | assay | system | setting | scale | endpoint | result |
| --- | --- | --- | --- | --- | --- | --- | --- |
| PhoQ, residues 284 288 289 292 302 303 SVTLVV | PhoP, residues 12 14 15 18 19 NFCKL (Escherichia coli, UniProt P23836) | Sort-seq, refers to: YFP reporter | E. coli | PhoQ-PhoP variant library, together with: 10 µM Mg2+ | relative to: high Mg2+ state, higher = stronger signaling | fold induction | 7.17 |
